Results from different studies.
Numbered parts are unrelated; each lists some results of a single study.

Sample 1 — technique: RNA Bind-n-Seq; form: RNA; medium: in vitro; concentration: 200 nM; setting: whole 134-nt RNA, ends assumed; together with: 150 mM KCl; reference: input library; reading: higher = stronger binding; measurement: log2 enrichment
Target: Ras GTPase-activating protein-binding protein 1, full length (G3BP1, Homo sapiens, UniProt Q13283)
UniProt Q13283, sequence (whole entry, looked up): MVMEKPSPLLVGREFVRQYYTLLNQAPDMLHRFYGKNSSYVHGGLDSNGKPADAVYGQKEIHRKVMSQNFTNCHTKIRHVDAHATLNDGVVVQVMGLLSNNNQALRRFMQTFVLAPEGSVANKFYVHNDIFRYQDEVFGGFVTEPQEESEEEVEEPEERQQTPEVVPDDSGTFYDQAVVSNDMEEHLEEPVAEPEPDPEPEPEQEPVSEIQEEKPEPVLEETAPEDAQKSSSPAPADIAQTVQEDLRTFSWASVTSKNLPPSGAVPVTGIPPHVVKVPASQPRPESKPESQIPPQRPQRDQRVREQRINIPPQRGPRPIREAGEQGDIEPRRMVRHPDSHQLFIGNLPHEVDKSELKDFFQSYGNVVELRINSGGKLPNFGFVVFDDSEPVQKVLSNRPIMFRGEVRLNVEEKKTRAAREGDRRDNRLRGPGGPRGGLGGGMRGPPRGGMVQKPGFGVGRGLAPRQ
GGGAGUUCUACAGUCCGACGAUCGUCCUGUGCUACACAUCGUAUGUACCGAAUCGGGGUUUUUGGGUUUUUGGGUUUUUGGAAAGUAUUAUGUUACGCCGUUCGGAUCUGCACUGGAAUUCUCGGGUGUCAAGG: -0.59
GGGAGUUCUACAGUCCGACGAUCCAAGUCCUGUGCUACACAUCGUAUGUACCGAAUCGGGGCCCGGCCCGGGGCCCGGGAAAGUAUUAUGUUACGCCGUUCGGAUCUGCACUUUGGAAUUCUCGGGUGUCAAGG: -0.902
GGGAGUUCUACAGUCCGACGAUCGUCCUGUGCUACACAUCGUAUGUACCGAAUCAAACCCAAACCCCCCCAAACCCCCAAAAAAGUAUUAUGUUACGCCGUUCGGAUCUGCACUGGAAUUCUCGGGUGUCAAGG: -0.315
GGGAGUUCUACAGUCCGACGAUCCCUCAAGUCCUGUGCUACACAUCGUAUGUACCGAAUCGGGGUGGUGGGGUGGGAAAGUAUUAUGUUACGCCGUUCGGAUCUGCACUUCCAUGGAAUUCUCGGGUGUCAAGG: 0.612
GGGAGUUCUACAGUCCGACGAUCUCAAGUCCUGUGCUACACAUCGUAUGUACCGAAUCGGGGCCGGGGCCGGGCCGGAAAGUAUUAUGUUACGCCGUUCGGAUCUGCACUUCCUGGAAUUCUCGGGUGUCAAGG: -0.46
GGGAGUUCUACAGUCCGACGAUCCCUCAAGUCCUGUGCUACACAUCGUAUGUACCGAAUCGGGGCGGCGGCGGGGAAAGUAUUAUGUUACGCCGUUCGGAUCUGCACUUCCAGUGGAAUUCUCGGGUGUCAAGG: 0.4
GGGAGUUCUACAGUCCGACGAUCCUCAAGUCCUGUGCUACACAUCGUAUGUACCGAAUCGGUUUGGUUUGGAAAGGAAAGUAUUAUGUUACGCCGUUCGGAUCUGCACUUCCAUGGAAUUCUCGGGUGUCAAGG: -0.479
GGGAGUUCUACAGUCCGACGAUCUUUUAAUUUGUUUGUCUCUCAUGAAACUAUGGUCUUUUAAAAAUUAAAGGUUUUUUUUUUCCCCUUAGACGAAACUGCAAAGGAAAUCCGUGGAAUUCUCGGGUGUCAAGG: -0.645
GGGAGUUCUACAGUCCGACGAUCCCUCAAGUCCUGUGCUACACAUCGUAUGUACCGAAUCGGAAGGGAAGGAAGGAAAGUAUUAUGUUACGCCGUUCGGAUCUGCACUUCCAGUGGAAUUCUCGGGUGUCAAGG: -0.172
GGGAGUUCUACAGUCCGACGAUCUGUGCUACACAUCGUAUGUACCGAAUCGGGGCCCCCCCGGGCCCCCCCGGGGCCCCCCCGGGGAAAGUAUUAUGUUACGCCGUUCGGAUCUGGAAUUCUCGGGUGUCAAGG: -0.968

Sample 2 — technique: protein binding microarray; form: double-stranded DNA, one strand shown; medium: in vitro; concentration: not given; reference: not given; reading: higher = stronger binding; measurement: E-score
Target: Histone acetyltransferase KAT6A, winged helix 1, GST fusion (KAT6A, Homo sapiens, UniProt Q92794, residues 1-85)
Setting: 8-mer, flanks averaged, mean of 2 arrays, mostly near background
Construct (chain): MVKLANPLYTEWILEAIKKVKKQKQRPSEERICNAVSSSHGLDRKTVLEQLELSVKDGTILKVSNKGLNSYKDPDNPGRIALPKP
CGAGTGAC: -0.15
ATCCGGAA: -0.0289
AGCGTAGG: 0.119
GAAGCATC: -0.239
GAACGCAA: -0.105
TGAGAGAA: -0.268
GAGGCACA: -0.263
CCACACAC: -0.0886
AGAGACAC: -0.107
ACGCGGGA: 0.35
CATAATTC: -0.00411
ACTCGCGC: 0.401
CCTCAGGC: -0.0293
TACCAGCA: -0.106
GAGCGCCA: 0.279
GCCTTTTA: -0.0192
CCGGAGTA: 0.205
CAGAAACA: -0.0746
CATTGGGA: -0.255
AGGCCCCG: 0.0886

Sample 3 — technique: RNA Bind-n-Seq; form: RNA; medium: in vitro; concentration: 365 nM; reference: no-protein control; reading: higher = stronger binding; measurement: RBNS enrichment (R)
Target: RNA binding protein fox-1 homolog 2, RRM domain, GST-SBP tag (RBFOX2, Homo sapiens, UniProt O43251-10, residues 100-194)
Setting: natural RNA segment, single round, ends assumed
Residues (chain): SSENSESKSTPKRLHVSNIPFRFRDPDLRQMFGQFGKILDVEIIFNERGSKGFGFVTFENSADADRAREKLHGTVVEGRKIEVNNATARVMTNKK
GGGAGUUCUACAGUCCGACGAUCAGCGGGCAGGAACUCUAGCCACCUUUCUCUGUUACCUGCAGCUGAUUGGCAAGGCUCCUAUGGAGCUCCCAGAAGCCUCAGCUAGGAAAAUGAGCCCUCACUUCAGCCUGUGGAAUUCUCGGGUGCCAA: 0.64
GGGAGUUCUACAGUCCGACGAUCUCCAAGGCACCCAAUGCUCCACCCUUUAAUACAGUUUCUUAUGGUUGUUGUGACCCCCAACCAUAAAAUCAUUUUGUUGCUAUUUCAUGUCUGUAAUUUUGCUAGUUCAUUGGAAUUCUCGGGUGCCAA: 0.771
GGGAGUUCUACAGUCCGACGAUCCAGUGAAUAACCUCUUGGAGUAUUUUUGGCUUUAUAUAAAACAAGGUUUUUAAUUGUAAAAUAUAAGUGCCAUUAGAAAAUGCACAGGGCAUAUCUUUGUUAAAGUAGAUUGGAAUUCUCGGGUGCCAA: 0.46
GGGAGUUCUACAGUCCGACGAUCGGCAAGGUGAAAGACACUUGAAUUUCUCUUUUUAGCAAUCUUACUGUUUUCUGGUGCUGACUGCUACACCCAGGACUUUGCCCUCACUAAGCAAAUGUACCACCAAUGAGUGGAAUUCUCGGGUGCCAA: 0.253
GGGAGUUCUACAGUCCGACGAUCCUUCACCCUCUGUGUCCAGAGGCCCAGCAUCUGUCACACAUCAAGGGGGCGUUUAUUCAGUCUUAGAGCCACUCGGAAUGGCUGGCCACAGUCUGAGCUGACUCCCUUCAUGGAAUUCUCGGGUGCCAA: 0.313
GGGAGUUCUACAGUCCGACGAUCAAACCAGAAUAUGCAUUACUUUGGUUUAAUACUUAGUGCUAACAUUGAAACUGUUGGUGGUGAUGGAUUUUGUAGCUUGCUGCUUGUUUCACCACUGGUCAAAUUUUAACUGGAAUUCUCGGGUGCCAA: 1.22
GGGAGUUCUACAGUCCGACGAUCGAGCAGAAAAGAGCACUGAGAGCACUUGGGACCCCUGGAUCAGAGAGCAUCUGUGUGUCCUGCAGCCUCCUCUGAACUUGUGGUUCAUUCUCAGGCUGGGGUGGACUCAGUGGAAUUCUCGGGUGCCAA: 0.194
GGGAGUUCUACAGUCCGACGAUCGCCUUCCCAUAUUGGUGGCAGUGGUGCCACACUGAACAGAGUGGAAGACAUAUGCCAUGCAGCUACACCUACCGGCCCUGGGACGCCGGAGGACAGGGCAUUGUCCUCAGUGGAAUUCUCGGGUGCCAA: 0.4
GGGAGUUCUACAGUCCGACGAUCUUUUUUAGGGCGUGUGCCCUGUUACACUUAUAGGGCCUAGGAUGCUUGUGUUGAGUAAAAAGGAGAUGCCCCAAUAUUCAAAGCUGCUAAAUGUUCUCUUUGCCAUAAAGUGGAAUUCUCGGGUGCCAA: 0.457
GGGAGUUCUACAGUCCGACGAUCUUCCCUUUCUACCAACCCCGUGGGAGUUCUACAGUACGGCUGUCCUGACACGGCUCUUGUCUAGGACCAGGGCGGCACAUCCCACCAGCGCCAUCUUCCUGGACAGAGUGUGGAAUUCUCGGGUGCCAA: 0.392
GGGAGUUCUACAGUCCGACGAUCGUCUAGAUUUUAAAUUAACUGUAGAAGGAAGUCAGACACCCACAGGUUUCUUCUAAUCAAGCUUCCACCCUGCAAUGGCUGUCGUGCCAUCUUCCUUCUGUGUUUUACUCUGGAAUUCUCGGGUGCCAA: 0.314
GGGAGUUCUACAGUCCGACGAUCAAGGUGCCAUCGCAGGGUCAGGCCUGCCCUGUCCCGAAGUGAUCUCCUGGAAGACAAGUGCCUUCUCCCUCCAUGGAUCUGUGAUCUUCCCAGCUCUGCAUCAACACAGCUGGAAUUCUCGGGUGCCAA: 0.192

Sample 4 — technique: universal PBM; form: double-stranded DNA, one strand shown; medium: in vitro; concentration: not given; reading: higher = stronger binding; measurement: E-score
Target: Sal-like protein 4, full length isoform B (SALL4, Homo sapiens, UniProt Q9UJQ4-2, residues 1-616)
Setting: 8-mer, flanks averaged, mean of replicates
Construct (chain): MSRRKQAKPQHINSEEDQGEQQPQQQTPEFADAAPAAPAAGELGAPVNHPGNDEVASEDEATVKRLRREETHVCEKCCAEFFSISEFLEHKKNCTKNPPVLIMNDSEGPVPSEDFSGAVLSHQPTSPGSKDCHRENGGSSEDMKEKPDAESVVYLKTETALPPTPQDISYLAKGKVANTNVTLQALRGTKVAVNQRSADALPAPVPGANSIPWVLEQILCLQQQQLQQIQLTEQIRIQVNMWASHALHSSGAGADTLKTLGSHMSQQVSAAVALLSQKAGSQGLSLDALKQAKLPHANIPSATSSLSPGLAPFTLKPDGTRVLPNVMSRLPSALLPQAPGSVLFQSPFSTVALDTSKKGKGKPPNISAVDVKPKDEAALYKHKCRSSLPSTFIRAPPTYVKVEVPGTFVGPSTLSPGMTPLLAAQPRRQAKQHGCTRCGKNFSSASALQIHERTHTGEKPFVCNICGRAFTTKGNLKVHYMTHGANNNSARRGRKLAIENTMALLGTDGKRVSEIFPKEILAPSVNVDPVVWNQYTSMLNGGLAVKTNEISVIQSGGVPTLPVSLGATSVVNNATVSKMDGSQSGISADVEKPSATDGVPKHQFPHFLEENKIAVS
TGATACCA: 0.133
CAAGTTAG: -0.0257
AAAAAGAA: 0.201
AATAGCTA: 0.239
ACCCAGGG: -0.307
AGATCCCA: -0.00208
ATGGCATG: 0.113
CGAGCTCC: -0.241
ACTCCCAA: 0.0356
AGTCTGAG: -0.175
ACAGGAGA: -0.0648
AACGCTTC: 0.0664
ATGGTGAA: 0.0424
ATAGACAG: 0.216
AGGAATGA: 0.0633
GAGTGCGC: -0.338
CAACGGAA: 0.081
AAAAACTG: 0.0864
ATCATCGC: 0.0886
AGACACTC: -0.106
CGCTCGAG: -0.102
GAGCTTCC: -0.201
CAGATGCA: -0.103
CTACTTTA: 0.0776
AGCATGTA: 0.179

A few entries again (sample 2):
ACGCGGGA: 0.35
CATAATTC: -0.00411
ACTCGCGC: 0.401
CCTCAGGC: -0.0293
TACCAGCA: -0.106
GAGCGCCA: 0.279
GCCTTTTA: -0.0192
CCGGAGTA: 0.205
CAGAAACA: -0.0746
CATTGGGA: -0.255
AGGCCCCG: 0.0886
